# Assay results collected from several papers.
# Compare with care: the assays were run in different laboratories. Several values in a cell are separate wells, animals, samples, runs or records.
# Organism: Staphylococcus aureus
SMILES,assay,test system,setting,how to read,quantity,result
C=CC[C@@H]1c2ccc(OC)c(OC)c2CN2CCc3cc4c(cc3[C@H]12)OCO4,,"P2rx7 A312V/A312V mice, skin wound infection","dose not given, day 3",relative to: day 0,relative wound size,0.79 and 0.9 and 1.23 and 0.91 and 0.98 and 0.95
OB(O)c1csc2ccccc12,,USA300 wild type,1 µM,relative to: untreated,growth relative to untreated,97% and 85.7% and 89.2% and 85.3% and 85.5%
CN[C@H](CC(C)C)C(=O)N[C@H]1C(=O)N[C@@H](CC(N)=O)C(=O)N[C@H]2C(=O)N[C@H]3C(=O)N[C@H](C(=O)N[C@H](C(=O)O)c4cc(O)cc(O)c4-c4cc3ccc4O)[C@H](O)c3ccc(c(Cl)c3)Oc3cc2cc(c3O[C@@H]2O[C@H](CO)[C@@H](O)[C@H](O)[C@H]2O[C@H]2C[C@](C)(N)[C@H](O)[C@H](C)O2)Oc2ccc(cc2Cl)[C@H]1O,,"CAAS-2019-CAAS-2019-13 clinical drug-resistant isolate, PBS",,,MBC,4 µg/mL
CC[C@H](C)[C@H](NC(=O)[C@H](C)NC(=O)[C@H](CCCCN)NC(=O)[C@H](CC(C)C)NC(=O)[C@H](C)NC(=O)[C@@H](NC(=O)[C@H](Cc1c[nH]cn1)NC(=O)[C@H](CC(C)C)NC(=O)[C@@H](NC(=O)[C@@H](NC(=O)[C@H](CCCCN)NC(=O)[C@H](C)NC(=O)[C@H](C)NC(=O)[C@H](CO)NC(=O)[C@H](CCCCN)NC(=O)[C@H](Cc1ccccc1)NC(=O)[C@@H](NC(=O)[C@H](CCCCN)NC(=O)[C@H](CC(C)C)NC(=O)[C@H](Cc1ccccc1)NC(=O)[C@H](CO)NC(=O)[C@H](CCCCN)NC(=O)[C@H](Cc1c[nH]c2ccccc12)NC(=O)[C@H](CCCCN)NC(C)=O)[C@@H](C)O)[C@@H](C)O)C(C)C)[C@@H](C)O)C(=O)N[C@@H](CO)C(=O)N[C@@H](CO)C(N)=O,,ATCC 29213,,,MIC geometric mean,8 µg/mL
CC(C)C[C@H](NC(=O)CNC(=O)CNC(=O)CNC(=O)[C@H](Cc1ccc(O)cc1)NC(=O)[C@H](CC(C)C)NC(=O)[C@@H](NC(=O)CNC(=O)[C@H](Cc1ccc(O)cc1)NC(=O)[C@H](CCCCN)NC(=O)[C@H](CC(N)=O)NC(=O)[C@@H](NC(=O)[C@H](CCCCN)NC(=O)[C@H](Cc1c[nH]c2ccccc12)NC(=O)CN)[C@@H](C)O)[C@@H](C)O)C(=O)N[C@@H](CCCCN)C(=O)N[C@@H](CCCCN)C(=O)N[C@@H](CC(C)C)C(=O)N[C@@H](CC(C)C)C(=O)N[C@@H](CC(C)C)C(=O)N[C@@H](CC(C)C)C(=O)N[C@@H](CC(C)C)C(=O)N[C@@H](CCCCN)C(=O)N[C@@H](CCCCN)C(=O)N[C@@H](CC(C)C)C(=O)NCC(=O)O,,USA300,with: 4 µM FeCl3,,MIC,32 µg/mL
Cc1c2c(nn1C)CSCc1cc(n(C)n1)CSc1cc(c3ccccc3c1)OCCCc1c(C(=O)O)n(C)c3c-2c(Cl)ccc13,"label-free quantitative proteomics, refers to: SAOUHSC_02828 protein",SA113,concentration not given,relative to: untreated control,log2 fold change,3.21
CO/N=C(\C(=O)N[C@@H]1C(=O)N2C(C(=O)O)=C(CSC(=O)c3ccco3)CS[C@H]12)c1csc(N)n1,,"CAAS-2019-CAAS-2019-02 clinical drug-resistant isolate, PBS",,,MBC,2 µg/mL
CC[C@H](C)[C@H](NC(=O)[C@H](CCCCN)NC(=O)[C@H](CCCCN)NC(=O)[C@H](Cc1ccccc1)NC(=O)[C@@H](NC(=O)[C@@H](NC(=O)[C@H](CCCNC(=N)N)NC(=O)[C@H](Cc1ccccc1)NC(=O)[C@@H](NC(=O)[C@H](CCCCN)NC(=O)[C@H](CCCCN)NC(=O)[C@@H](N)CCSC)[C@@H](C)CC)C(C)C)[C@@H](C)CC)C(=O)N[C@@H](CC(C)C)C(=O)N[C@@H](CCCCN)C(=O)N[C@@H](CCCNC(=N)N)C(=O)N[C@@H](CC(C)C)C(=O)N[C@H](C(=O)N[C@H](C(=O)O)C(C)C)[C@@H](C)CC,broth microdilution,GU-1 MRSA,with: 1 mM MgSO4,,MIC,4 µg/mL
CCCCCCCCCC(=O)N[C@@H](Cc1c[nH]c2ccccc12)C(=O)N[C@H](CC(N)=O)C(=O)N[C@@H](CC(=O)O)C(=O)N[C@@H]1C(=O)NCC(=O)N[C@@H](CCCN)C(=O)N[C@@H](CC(=O)O)C(=O)N[C@H](C)C(=O)N[C@@H](CC(=O)O)C(=O)NCC(=O)N[C@H](CO)C(=O)N[C@@H]([C@H](C)CC(=O)O)C(=O)N[C@@H](CC(=O)c2ccccc2N)C(=O)O[C@@H]1C,broth microdilution,"BR-VRSA strain 880, Mueller-Hinton broth, Mg2+ 10 mg/L","16 h, with: Ca2+ 10 mM",,MIC,0.125 µg/mL

# Excerpt of the above:
SMILES,assay,test system,setting,how to read,quantity,result
Cc1c2c(nn1C)CSCc1cc(n(C)n1)CSc1cc(c3ccccc3c1)OCCCc1c(C(=O)O)n(C)c3c-2c(Cl)ccc13,"label-free quantitative proteomics, refers to: SAOUHSC_02828 protein",SA113,concentration not given,relative to: untreated control,log2 fold change,3.21
